Experimental data collected from several papers.
Compare with care: the assays were run in different laboratories. Numbers after ± are the reported error. ≈ marks a conversion by molar mass, not a printed value.

The chains behind the UniProt entries cited, without tags or fusion partners.
UniProt P35372, whole entry: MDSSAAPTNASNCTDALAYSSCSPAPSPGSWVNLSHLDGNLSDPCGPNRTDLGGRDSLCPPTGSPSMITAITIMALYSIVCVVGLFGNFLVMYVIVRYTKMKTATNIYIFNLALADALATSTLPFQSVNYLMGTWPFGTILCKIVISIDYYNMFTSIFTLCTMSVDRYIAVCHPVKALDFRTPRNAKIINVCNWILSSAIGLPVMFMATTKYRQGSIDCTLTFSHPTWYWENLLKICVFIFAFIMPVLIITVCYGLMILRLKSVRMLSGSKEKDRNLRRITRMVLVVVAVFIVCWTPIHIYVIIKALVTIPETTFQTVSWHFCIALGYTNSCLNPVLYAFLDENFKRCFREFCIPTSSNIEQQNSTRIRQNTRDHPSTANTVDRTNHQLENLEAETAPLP
UniProt P41145, whole entry: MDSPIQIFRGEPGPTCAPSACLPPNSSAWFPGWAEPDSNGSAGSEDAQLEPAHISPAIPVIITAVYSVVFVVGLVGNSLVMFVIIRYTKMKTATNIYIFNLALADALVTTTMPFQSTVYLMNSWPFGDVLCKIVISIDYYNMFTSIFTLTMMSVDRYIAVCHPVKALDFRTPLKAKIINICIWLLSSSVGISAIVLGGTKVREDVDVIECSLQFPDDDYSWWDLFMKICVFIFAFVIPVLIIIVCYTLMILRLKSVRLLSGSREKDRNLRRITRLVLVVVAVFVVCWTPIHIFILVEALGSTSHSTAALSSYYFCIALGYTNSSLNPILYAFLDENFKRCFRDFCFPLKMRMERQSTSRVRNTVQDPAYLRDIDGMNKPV
UniProt P33535, whole entry: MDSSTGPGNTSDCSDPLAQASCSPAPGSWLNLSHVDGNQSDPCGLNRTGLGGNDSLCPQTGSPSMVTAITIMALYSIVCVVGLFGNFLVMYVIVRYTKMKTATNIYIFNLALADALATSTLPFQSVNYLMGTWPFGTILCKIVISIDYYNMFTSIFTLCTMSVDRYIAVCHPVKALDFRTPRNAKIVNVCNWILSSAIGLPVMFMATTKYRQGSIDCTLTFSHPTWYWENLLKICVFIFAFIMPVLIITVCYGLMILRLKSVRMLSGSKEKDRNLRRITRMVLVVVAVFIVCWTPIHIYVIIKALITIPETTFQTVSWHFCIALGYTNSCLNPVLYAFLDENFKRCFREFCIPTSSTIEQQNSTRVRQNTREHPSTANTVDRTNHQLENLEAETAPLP
UniProt P21918, whole entry: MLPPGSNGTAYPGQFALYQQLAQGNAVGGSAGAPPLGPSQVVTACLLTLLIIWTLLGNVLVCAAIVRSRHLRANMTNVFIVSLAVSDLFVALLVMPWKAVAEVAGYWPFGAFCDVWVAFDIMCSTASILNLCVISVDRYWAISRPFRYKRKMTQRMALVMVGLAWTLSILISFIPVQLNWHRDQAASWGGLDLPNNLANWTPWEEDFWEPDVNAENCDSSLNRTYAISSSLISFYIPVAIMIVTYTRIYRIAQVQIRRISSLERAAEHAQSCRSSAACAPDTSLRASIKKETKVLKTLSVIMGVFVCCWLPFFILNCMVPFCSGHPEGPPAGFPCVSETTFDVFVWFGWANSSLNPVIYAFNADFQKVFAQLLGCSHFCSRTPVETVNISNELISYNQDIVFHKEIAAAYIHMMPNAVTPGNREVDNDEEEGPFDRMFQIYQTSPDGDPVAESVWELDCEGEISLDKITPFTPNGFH
UniProt Q00960, whole entry, looked up: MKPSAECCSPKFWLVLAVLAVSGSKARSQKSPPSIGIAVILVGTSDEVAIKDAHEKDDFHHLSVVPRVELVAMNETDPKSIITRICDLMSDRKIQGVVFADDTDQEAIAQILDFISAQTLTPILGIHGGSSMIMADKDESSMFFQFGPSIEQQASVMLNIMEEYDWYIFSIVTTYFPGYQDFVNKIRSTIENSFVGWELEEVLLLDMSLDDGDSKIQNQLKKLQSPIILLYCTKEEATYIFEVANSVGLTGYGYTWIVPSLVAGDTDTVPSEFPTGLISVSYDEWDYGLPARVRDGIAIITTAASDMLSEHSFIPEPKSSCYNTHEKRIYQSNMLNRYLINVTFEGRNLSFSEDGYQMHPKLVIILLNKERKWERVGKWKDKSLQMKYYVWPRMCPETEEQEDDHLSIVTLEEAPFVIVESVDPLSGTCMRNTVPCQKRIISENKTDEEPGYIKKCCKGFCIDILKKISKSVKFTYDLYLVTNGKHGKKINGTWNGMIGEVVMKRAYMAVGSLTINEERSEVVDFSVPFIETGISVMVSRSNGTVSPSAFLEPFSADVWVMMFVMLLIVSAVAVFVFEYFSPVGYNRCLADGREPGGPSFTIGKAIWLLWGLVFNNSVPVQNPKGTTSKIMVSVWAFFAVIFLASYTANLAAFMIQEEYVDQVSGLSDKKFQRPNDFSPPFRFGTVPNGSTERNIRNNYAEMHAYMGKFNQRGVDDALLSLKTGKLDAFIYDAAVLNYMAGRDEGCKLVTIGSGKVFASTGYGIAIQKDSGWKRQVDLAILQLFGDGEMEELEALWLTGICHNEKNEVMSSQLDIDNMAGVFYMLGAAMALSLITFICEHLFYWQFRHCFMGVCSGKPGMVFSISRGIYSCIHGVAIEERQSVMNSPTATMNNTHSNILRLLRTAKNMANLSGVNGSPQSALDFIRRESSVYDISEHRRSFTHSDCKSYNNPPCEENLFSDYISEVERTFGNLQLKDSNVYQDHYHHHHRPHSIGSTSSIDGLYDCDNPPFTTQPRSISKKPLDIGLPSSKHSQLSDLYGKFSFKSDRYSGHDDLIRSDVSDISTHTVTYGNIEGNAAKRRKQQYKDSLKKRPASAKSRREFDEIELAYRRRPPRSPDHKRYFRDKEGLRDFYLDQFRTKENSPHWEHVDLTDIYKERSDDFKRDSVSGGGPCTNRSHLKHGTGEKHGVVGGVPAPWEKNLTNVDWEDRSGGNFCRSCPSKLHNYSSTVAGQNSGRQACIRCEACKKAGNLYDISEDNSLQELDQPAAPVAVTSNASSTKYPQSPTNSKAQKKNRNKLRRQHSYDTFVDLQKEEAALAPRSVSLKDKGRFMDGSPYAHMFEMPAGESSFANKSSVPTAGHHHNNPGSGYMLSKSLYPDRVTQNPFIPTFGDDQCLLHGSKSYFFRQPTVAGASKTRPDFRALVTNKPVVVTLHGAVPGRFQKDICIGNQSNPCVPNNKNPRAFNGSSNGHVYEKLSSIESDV

| Substance | target or system | test | test system | conditions | scale | measurement | result |
| --- | --- | --- | --- | --- | --- | --- | --- |
| CC1CCC2(CC1)OOCOCOOC1(CCC(C)CC1)OO2 (stereo not drawn) | K562 | cytotoxicity, 7-AAD flow cytometry | – | – | – | IC50 | 8.12 ± 0.34 µM |
| O=c1ccc2nc3ccc(OCC4CCOCC4)cc3oc-2c1 | Mycobacterium tuberculosis | – | mc2 6206 PA-824-resistant ddn mutant | 7 days | – | MIC90 | > 256 µM |
| Cc1csc(CCCNCc2cc(=O)c3cc(F)ccc3[nH]2)n1 | cells expressing human DRD4 | arrestin over Gαi/o signalling | – | – | baseline: quinpirole | bias factor | 20 fold |
| CCN(CC)C(=O)Oc1ccc(C(=O)Nc2cccc3cc[nH]c23)cc1 | – | NMDA receptor EPSC, inhibitor, whole-cell patch clamp | CA1 interneurons, mouse, hippocampal slices | 10 µM | – | weighted decay time constant | 101 ± 14 ms |
| CC[C@H](C)[C@@H]1NC(=O)[C@H](CCC(=O)O)NC(=O)[C@@H]2CCCN2C(=O)[C@H](Cc2c[nH]cn2)NC(=O)[C@H](CC(=O)O)NC(=O)[C@H](Cc2ccc(O)cc2)NC(=O)[C@H](CC(N)=O)NC(=O)[C@@H]2CSSC[C@@H]3NC(=O)CNC(=O)CNC(=O)CNC(=O)[C@H](C)NC(=O)[C@H](C)NC(=O)CNC(=O)CNC(=O)[C@H](CSSC[C@H](NC3=O)C(=O)N[C@@H](CO)C(=O)N[C@@H](CC(=O)O)C(=O)N3CCC[C@H]3C(=O)N[C@@H](CCCNC(=N)N)C(=O)N2)NC1=O | – | barium current, inhibitor, electrophysiology | – | 0.2 µM, Cav2.3c alone without GABAB receptor | – | inhibition | 0% |
| CO[C@]12CC[C@@]3(C[C@@H]1[C@H](O)c1ccccc1)[C@H]1Cc4ccc(O)c5c4[C@@]3(CCN1CC1CC1)[C@H]2O5 | OPRM1 (Homo sapiens, UniProt P35372) | G-protein activation, agonist | – | – | baseline: DAMGO | EC50 | 0.0104 ± 0.0027 µM |
| CC#C/C(=N\OC[C@H]1COCCN1)c1ccc2ncnc(Nc3ccc(OCc4cccc(F)c4)c(Cl)c3)c2c1 | – | tumour growth | A-431, mouse subcutaneous xenograft | oral, 11 days daily | – | ED50 | < 25 mg/kg |
| fluorouracil | RKO | cell viability, MTS | – | – | – | IC50 | 2.09 ± 0.87 µM |
| CN(C(=O)Cc1ccc(Cl)c(Cl)c1)[C@H](CN1CCCC1)c1ccccc1 | OPRK1 (Homo sapiens, UniProt P41145) | receptor internalization, agonist, on-cell western | – | human receptor | baseline: control | Emax | 54.7 ± 1% |
| CO[C@]12CC[C@@]3(C[C@@H]1[C@@](C)(O)C(C)(C)C)[C@H]1Cc4c(Cl)cc(O)c5c4[C@@]3(CCN1CC1CC1)[C@H]2O5 | – | PPQ-induced writhing test | mice | dose not given | – | peak antiwrithing effect | 20% |
| CSc1nc(Cl)cc(Sc2nnc(-c3cc(C(F)(F)F)cc(C(F)(F)F)c3)[nH]2)n1 | Escherichia coli | – | NR698 | 37 °C, without PMBN | – | MIC | 2.2 µg/mL (≈ 4.66 µM) |
| CCC(C)C(CC)C(N)=O (stereo not drawn) | – | secondarily generalized seizures | hippocampal kindled rat | – | – | ED50 | ~40 mg/kg |
| CC1(C)CCC(Cc2cc(O)c(-c3ccccc3)c(=O)[nH]2)CC1 | Mycobacterium tuberculosis | – | inhA S94A resistant mutant | – | – | MIC50 | 0.78 µM (≈ 0.243 µg/mL) |
| O=c1ccc2nc3ccc(OCc4ccccc4)cc3oc-2c1I | Mycobacterium tuberculosis | – | mc2 6206 PA-824-resistant ddn mutant | 7 days | – | MIC90 | 96 µM (≈ 41.2 µg/mL) |
| CCCCCCC1c2ccc(O)cc2Oc2cc(O)ccc21 | Klebsiella spp. | – | – | added: NAB7061 4 µg/mL | – | MIC | 7.5 µg/mL (≈ 25.1 µM) |
| CO[C@]12CC[C@@]3(C[C@@H]1[C@](C)(O)c1cc(C)cc(C)c1)[C@H]1Cc4ccc(O)c5c4[C@@]3(CCN1CC1CC1)[C@H]2O5 | Oprm1 (Rattus norvegicus, UniProt P33535) | binding, radioligand displacement | C6 rat glioma | added: [3H]diprenorphine | – | Ki | 0.00028 ± 0.00016 µM |
| CC(C)Oc1ccc2nc3ccc(=O)cc-3oc2c1 | Mycobacterium tuberculosis | – | mc2 6206 clofazimine-resistant fbiC mutant | 7 days | – | MIC90 | 39 µM (≈ 9.96 µg/mL) |
| O=[N+]([O-])c1cn2c(n1)OC[C@@H](OCc1ccc(OC(F)(F)F)cc1)C2 | Mycobacterium bovis | – | BCG Tac^r2.3, fbiA L109P missense | TA-C-resistant F420 mutant | – | MIC50 | > 100 µM |
| O=c1ccc2nc3ccc(OCC4CCCCC4)cc3oc-2c1 | Mycobacterium tuberculosis | – | mc2 6206 bedaquiline-resistant MmpL5 regulator mutant | 7 days | – | MIC90 | 83 µM (≈ 25.7 µg/mL) |
| CSCC[C@@H](C=O)NC(=O)[C@H](CC(C)C)NC(=O)[C@H](CC(C)C)NC(C)=O | BEAS-2B | neutral red uptake | – | 48 h | – | CC50 | > 100 µM |
| C(CCCCCN1COOC2(CCCCCC2)OOC2(CCCCCC2)OOC1)CCCCN1COOC2(CCCCCC2)OOC2(CCCCCC2)OOC1 | HEK293 | cytotoxicity, 7-AAD flow cytometry | – | – | – | IC50 | 5.42 ± 0.37 µM |
| CCCN1CCN(c2ccc3c(c2)C2CC3CCN2C(=O)OCc2ccccc2)CC1 (stereo not drawn) | DRD5 (Homo sapiens, UniProt P21918) | binding, radioligand binding | – | – | – | Ki | 4.89 µM |
| c1ccc(Nc2cccc3ccccc23)cc1 | Manis javanica OBP3 M97A | binding, fluorescence binding | – | added: 1-NPN probe | – | Kd | 0.72 ± 0.21 µM |

| Substance | target or system | test | test system | conditions | scale | measurement | result |
| --- | --- | --- | --- | --- | --- | --- | --- |
| C[C@H](Cc1ccc(O)c(O)c1)[C@@H](C)Cc1ccc(O)c(O)c1 | – | – | human skin | 3% solution, 8 h, skin UV-treated 10 min | – | amount in epidermis | 19.3 ± 2.18 µg |
| COc1ccc(OC[C@H]2c3cccn3CC(=O)N2Cc2cccc(F)c2)cc1 | Glutamate receptor ionotropic, NMDA 2B, with GluN1 (Grin2b, Rattus norvegicus, UniProt Q00960) | ion current, whole-cell patch clamp | HEK293T cells, transfected | 10 µM, added: glutamate for 10 ms | baseline: baseline | charge transfer | 1.4 ± 0.3 fold |
| COc1cc(OC)c2ccccc2c1C=C1C(=O)NC(=S)NC1=O | Ly19 | extracellular flux analysis | – | 4 µM, 24 h | – | ATP-linked respiration | decreased |
| O=C(O)COc1ccc2nc3ccc(=O)cc-3oc2c1 | Mycobacterium tuberculosis | – | mc2 6206 PA-824-resistant ddn mutant | 7 days | – | MIC90 | > 256 µM |
| Cc1ccc(S(=O)(=O)N(C)CC(=O)N(Cc2ccc(C3CCCCC3)cc2)c2ccc(C(=O)O)c(O)c2)cc1 | MDA-MB-231, PANC-1, NIH3T3/v-Src | immunoblotting, refers to: c-Myc, Bcl-xL, VEGF, survivin, MMP-9 | – | 50 µM, 24 h | – | protein level | decreased |
| CCN1CCN(Cc2ccc(NC(=O)c3ccc(C)c(/C=C/c4cnc5[nH]ccc5c4OC)c3)cc2C(F)(F)F)CC1 | FIP1L1-PDGFRA fusion | kinase-CDC37 interaction, cell-based kinome screen | – | 5 µM | baseline: vehicle | log2 fold change | -2.32 |
| C=C[C@@H]1[C@H]2CCC[C@]1(c1cccc(O)c1)CCN2CCc1ccccc1 | – | – | human liver microsomes 0.5 mg/mL | 1 µM, pH 7.4, added: NADPH | – | half-life | 8 min |
| O=C(C1CC1)N1CC2CC(C1)N2 | – | limb use asymmetry test | rat, unilateral 6-OHDA lesion | 5 min period, off L-dopa | – | contralateral forelimb use | 12.9 ± 3% |
| O=c1ccc2nc3ccc(OCc4ccc([N+](=O)[O-])o4)cc3oc-2c1 | Mycobacterium tuberculosis | – | mc2 6206 bedaquiline-resistant MmpL5 regulator mutant | 7 days | – | MIC90 | 0.31 µM (≈ 0.105 µg/mL) |
| Cc1ccc([C@H](CC(=O)O)NC(=O)Nc2c(O)c(C)cn(Cc3ccccc3Cl)c2=O)cc1 | – | – | LAX7R xenograft, NSG mouse B-ALL model | dose not given, added: vincristine, dexamethasone, L-asparaginase | – | mice with prolonged survival | ~33% |
| CC1CCC2(CC1)OOCN(CCCCCCCCCCN1COOC3(CCC(C)CC3)OOC3(CCC(C)CC3)OOC1)COOC1(CCC(C)CC1)OO2 (stereo not drawn) | K562 | cytotoxicity, 7-AAD flow cytometry | – | – | – | IC50 | 3.27 ± 0.15 µM |
| CO[C@H]1/C=C/O[C@@]2(C)Oc3c(C)c(O)c4c(O)c(c(/C=N/N5CCN(C)CC5)c(O)c4c3C2=O)NC(=O)/C(C)=C\C=C\[C@H](C)[C@H](O)[C@@H](C)[C@@H](O)[C@@H](C)[C@H](OC(C)=O)[C@@H]1C | Mycobacterium bovis | – | BCG Tac^r10.1, thyA mutant | TA-C-resistant thyA mutant | – | MIC50 | 0.0016 µM (≈ 0.00132 µg/mL) |
| CCOC(=O)OCOc1c(-c2ccc(Oc3ccc(OC(F)(F)F)cc3)cc2)c(C)nc2cc(OC)c(Cl)cc12 | Plasmodium yoelii | – | mouse | oral, 30 days without recrudescence, PEG-400 vehicle | – | single-dose curative dose | 3 mg/kg/day |
| C[C@H]1COc2c(N3CCN(C)CC3)c(F)cc3c(=O)c(C(=O)O)cn1c23 | Staphylococcus aureus topoisomerase IV GrlA S81Y | DNA cleavage | – | – | – | CC3 | 15 µM |
| CCCOc1ccc2nc3ccc(=O)cc-3oc2c1 | Mycobacterium tuberculosis | – | mc2 6206 bedaquiline-resistant MmpL5 regulator mutant | 7 days | – | MIC90 | 19 µM (≈ 4.85 µg/mL) |
| CCCCCCCCCCCCCC(=S)NCCCC[C@H](NC(=O)OCc1ccccc1)C(=O)Nc1cccc(O)c1 | HCT-116 | cell growth | – | – | – | GI50 | 6.2 ± 0.2 µM |
| CC(C)Cc1nnc2c(C(=O)NC3c4ccccc4-c4ccccc43)cccn12 | Escherichia coli | broth microdilution | MB5746 rpoC D622G | – | baseline: mutant over wild type | MIC ratio | > 32 |
| O=c1ccc2nc3ccc(OCc4ccc([N+](=O)[O-])s4)cc3oc-2c1 | Mycobacterium tuberculosis | – | mc2 6206, fbiC mutant, clofazimine-resistant | – | – | MIC90 | inactive |
| CCc1nc(N)nc(N)c1C#CCc1cc(OC)cc(-c2ccc(C(=O)O)cc2)c1 | Staphylococcus aureus | – | MSSA isolate UCH 1 | – | – | MIC | 10 µg/mL (≈ 24.8 µM) |
| CCC(C)C1NC(=O)/C(=C(/C)O)C1=O (stereo not drawn) | plasma membrane H+-ATPase (Spinacia oleracea) | ATP hydrolysis | plasma membrane fraction | 20 µM, 10 min, preincubation, no fusicoccin, added: 14-3-3 protein | – | specific activity | 10 nmol Pi/mg/min |
| CCc1nc(N)nc(N)c1C#CCc1cc(OC)c(OC)c(-c2ccncc2)c1 | Staphylococcus aureus | – | MRSA clinical isolate dfrA | – | – | MIC | > 10 µg/mL |
| O=C(Nc1ccccc1)c1cc([N+](=O)[O-])ccc1Cl | Salmonella typhimurium | Ames plate incorporation | TA98 | 15 µg/plate, without metabolic activation | – | revertants | 29 ± 2 revertants/plate |

A few entries again:
| Substance | target or system | test | test system | conditions | scale | measurement | result |
| --- | --- | --- | --- | --- | --- | --- | --- |
| COc1cc(OC)c2ccccc2c1C=C1C(=O)NC(=S)NC1=O | Ly19 | extracellular flux analysis | – | 4 µM, 24 h | – | ATP-linked respiration | decreased |
| O=C(O)COc1ccc2nc3ccc(=O)cc-3oc2c1 | Mycobacterium tuberculosis | – | mc2 6206 PA-824-resistant ddn mutant | 7 days | – | MIC90 | > 256 µM |
| Cc1ccc(S(=O)(=O)N(C)CC(=O)N(Cc2ccc(C3CCCCC3)cc2)c2ccc(C(=O)O)c(O)c2)cc1 | MDA-MB-231, PANC-1, NIH3T3/v-Src | immunoblotting, refers to: c-Myc, Bcl-xL, VEGF, survivin, MMP-9 | – | 50 µM, 24 h | – | protein level | decreased |
| CCN1CCN(Cc2ccc(NC(=O)c3ccc(C)c(/C=C/c4cnc5[nH]ccc5c4OC)c3)cc2C(F)(F)F)CC1 | FIP1L1-PDGFRA fusion | kinase-CDC37 interaction, cell-based kinome screen | – | 5 µM | baseline: vehicle | log2 fold change | -2.32 |
